Experimental data gathered from unrelated publications.
Each numbered part is a random draw from the data of one study; scales do not carry over between parts.
Chain of UniProt Q9UPZ9 (whole entry, looked up): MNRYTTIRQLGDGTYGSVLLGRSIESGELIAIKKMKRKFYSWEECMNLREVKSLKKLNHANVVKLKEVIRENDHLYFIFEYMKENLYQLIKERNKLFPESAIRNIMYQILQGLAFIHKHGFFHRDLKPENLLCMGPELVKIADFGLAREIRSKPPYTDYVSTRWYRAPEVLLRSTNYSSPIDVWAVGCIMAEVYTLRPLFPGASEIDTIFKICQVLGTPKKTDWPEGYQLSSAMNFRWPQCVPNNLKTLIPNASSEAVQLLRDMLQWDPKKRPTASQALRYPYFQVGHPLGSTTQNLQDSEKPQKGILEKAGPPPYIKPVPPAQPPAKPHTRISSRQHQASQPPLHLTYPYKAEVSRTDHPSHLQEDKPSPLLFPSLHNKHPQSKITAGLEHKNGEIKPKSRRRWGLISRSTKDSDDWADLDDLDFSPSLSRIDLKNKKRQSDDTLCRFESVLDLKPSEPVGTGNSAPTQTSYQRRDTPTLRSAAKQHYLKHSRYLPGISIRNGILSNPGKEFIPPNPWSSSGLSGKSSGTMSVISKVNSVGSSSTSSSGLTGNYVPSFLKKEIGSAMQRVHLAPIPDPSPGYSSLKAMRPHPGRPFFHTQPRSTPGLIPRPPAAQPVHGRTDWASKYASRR
Chain of UniProt Q6P2M8 (whole entry, looked up): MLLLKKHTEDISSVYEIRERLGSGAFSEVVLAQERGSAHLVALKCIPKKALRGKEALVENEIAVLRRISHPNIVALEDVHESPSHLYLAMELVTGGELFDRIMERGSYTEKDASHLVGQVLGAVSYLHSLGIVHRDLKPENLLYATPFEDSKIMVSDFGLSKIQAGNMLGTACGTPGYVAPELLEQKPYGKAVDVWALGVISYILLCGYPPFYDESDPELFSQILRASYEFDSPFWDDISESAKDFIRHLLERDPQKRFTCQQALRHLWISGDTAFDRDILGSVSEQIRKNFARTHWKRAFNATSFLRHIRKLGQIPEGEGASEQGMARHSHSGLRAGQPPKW
Chain of UniProt P49336 (whole entry, looked up): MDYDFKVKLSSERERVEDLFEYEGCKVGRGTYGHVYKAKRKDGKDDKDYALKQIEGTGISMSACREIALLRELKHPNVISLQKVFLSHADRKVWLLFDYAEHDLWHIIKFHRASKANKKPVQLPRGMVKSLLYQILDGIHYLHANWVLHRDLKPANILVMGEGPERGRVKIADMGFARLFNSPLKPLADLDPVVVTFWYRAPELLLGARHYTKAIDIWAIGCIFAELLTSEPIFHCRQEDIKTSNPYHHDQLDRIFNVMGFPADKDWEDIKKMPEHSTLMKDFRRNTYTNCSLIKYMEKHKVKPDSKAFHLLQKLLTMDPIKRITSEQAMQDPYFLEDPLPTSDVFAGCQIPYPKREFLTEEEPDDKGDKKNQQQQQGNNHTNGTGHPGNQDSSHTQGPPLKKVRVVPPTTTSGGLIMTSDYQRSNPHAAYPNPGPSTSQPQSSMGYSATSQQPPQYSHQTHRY
Chain of UniProt Q7L7X3 (whole entry, looked up): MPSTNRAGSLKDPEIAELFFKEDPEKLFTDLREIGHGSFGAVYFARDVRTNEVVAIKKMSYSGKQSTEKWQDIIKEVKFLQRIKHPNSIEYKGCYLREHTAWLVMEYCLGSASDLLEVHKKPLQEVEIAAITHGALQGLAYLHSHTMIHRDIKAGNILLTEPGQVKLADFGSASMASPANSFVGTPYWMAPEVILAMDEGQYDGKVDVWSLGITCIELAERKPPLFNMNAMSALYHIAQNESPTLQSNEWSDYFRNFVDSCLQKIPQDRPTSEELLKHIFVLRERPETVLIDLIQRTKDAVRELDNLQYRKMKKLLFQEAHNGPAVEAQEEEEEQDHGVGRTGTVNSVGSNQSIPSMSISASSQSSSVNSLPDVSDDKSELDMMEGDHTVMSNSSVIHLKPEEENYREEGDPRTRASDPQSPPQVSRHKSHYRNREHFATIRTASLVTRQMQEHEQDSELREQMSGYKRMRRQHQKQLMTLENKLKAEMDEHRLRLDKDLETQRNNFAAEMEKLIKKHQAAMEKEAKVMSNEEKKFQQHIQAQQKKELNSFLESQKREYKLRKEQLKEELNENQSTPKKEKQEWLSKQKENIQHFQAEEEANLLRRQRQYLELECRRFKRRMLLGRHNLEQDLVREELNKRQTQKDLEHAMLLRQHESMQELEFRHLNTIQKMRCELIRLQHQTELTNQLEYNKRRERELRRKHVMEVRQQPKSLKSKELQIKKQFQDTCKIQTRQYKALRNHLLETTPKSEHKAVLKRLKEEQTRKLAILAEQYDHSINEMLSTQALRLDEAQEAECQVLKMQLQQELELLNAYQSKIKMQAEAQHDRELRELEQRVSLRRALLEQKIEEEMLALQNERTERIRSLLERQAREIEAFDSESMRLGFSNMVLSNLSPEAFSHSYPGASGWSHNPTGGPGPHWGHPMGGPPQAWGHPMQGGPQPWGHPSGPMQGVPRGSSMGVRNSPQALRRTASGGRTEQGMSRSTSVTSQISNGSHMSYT
Chain of UniProt P10721 (whole entry, unmodified, looked up): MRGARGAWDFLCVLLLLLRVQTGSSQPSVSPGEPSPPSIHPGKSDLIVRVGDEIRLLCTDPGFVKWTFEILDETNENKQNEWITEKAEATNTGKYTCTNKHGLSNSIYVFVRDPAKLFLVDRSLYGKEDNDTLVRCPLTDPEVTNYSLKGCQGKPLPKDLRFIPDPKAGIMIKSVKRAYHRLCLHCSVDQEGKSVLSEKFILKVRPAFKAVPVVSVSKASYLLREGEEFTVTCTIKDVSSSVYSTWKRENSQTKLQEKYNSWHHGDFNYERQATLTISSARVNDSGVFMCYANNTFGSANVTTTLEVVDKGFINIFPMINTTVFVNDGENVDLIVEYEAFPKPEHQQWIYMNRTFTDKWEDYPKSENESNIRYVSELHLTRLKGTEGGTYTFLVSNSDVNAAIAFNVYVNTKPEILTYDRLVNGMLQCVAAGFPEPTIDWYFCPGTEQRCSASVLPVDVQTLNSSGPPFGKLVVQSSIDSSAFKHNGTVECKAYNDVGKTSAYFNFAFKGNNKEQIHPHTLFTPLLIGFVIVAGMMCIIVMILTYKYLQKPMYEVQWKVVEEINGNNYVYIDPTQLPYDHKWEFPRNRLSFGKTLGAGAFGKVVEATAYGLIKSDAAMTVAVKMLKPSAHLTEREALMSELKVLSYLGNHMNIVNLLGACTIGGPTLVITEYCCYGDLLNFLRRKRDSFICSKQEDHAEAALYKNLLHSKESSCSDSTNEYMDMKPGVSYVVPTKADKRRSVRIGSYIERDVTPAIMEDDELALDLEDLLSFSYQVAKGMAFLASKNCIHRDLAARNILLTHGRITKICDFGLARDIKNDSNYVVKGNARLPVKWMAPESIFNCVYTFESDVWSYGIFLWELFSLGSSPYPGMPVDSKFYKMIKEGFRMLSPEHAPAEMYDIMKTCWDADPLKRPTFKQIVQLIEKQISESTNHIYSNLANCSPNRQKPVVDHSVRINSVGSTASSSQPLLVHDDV

Set 1 — observed: enzyme activity; tested at: 5 µM; baseline: untreated control
SMILES: O=C(Nc1cnn(-c2csc(C(=O)NC3COC3)c2)c1)Nc1ccccc1Cl
target | remaining activity [%]
TAOK1 (Homo sapiens, UniProt Q7L7X3) | 121
Cyclin-dependent kinase 8, with cyclin C (CDK8, Homo sapiens, UniProt P49336) | 100
PNCK (Homo sapiens, UniProt Q6P2M8) | 96.3
TSSK2 (Homo sapiens, UniProt Q96PF2) | 90
BTK (Homo sapiens, UniProt Q06187) | 91.6
DAPK2 (Homo sapiens, UniProt Q9UIK4) | 102

Set 2 — observed: enzyme activity; action: inhibitor; tested at: 10 µM
Target: Calcium/calmodulin-dependent protein kinase type II subunit alpha (CAMK2A, Homo sapiens, UniProt Q9UQM7)
Chain of UniProt Q9UQM7 (whole entry, looked up): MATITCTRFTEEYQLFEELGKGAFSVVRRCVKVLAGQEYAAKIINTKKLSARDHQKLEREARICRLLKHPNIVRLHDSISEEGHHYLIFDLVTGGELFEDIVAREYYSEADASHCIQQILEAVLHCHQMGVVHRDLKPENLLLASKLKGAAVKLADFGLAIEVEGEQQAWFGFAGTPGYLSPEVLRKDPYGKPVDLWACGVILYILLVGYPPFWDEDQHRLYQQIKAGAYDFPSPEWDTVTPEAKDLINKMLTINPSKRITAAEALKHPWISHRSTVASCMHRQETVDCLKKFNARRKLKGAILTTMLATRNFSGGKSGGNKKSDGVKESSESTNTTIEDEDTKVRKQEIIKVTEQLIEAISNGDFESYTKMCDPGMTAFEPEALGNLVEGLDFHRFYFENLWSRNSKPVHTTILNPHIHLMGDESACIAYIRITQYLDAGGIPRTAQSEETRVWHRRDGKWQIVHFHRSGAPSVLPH
Compound | inhibition
CCOC(=O)Nc1ccc(NCc2ccc(F)cc2)nc1N | 2%
O=C(O)c1ccccc1-c1c2ccc(=O)cc-2oc2cc(O)ccc12 | -2%
CCCc1nc(C)c2c(=O)nc(-c3cc(S(=O)(=O)N4CCN(CC)CC4)ccc3OCC)[nH]n12 | 0%
C[C@@H]1O[C@@H](O[C@H]2[C@H](O[C@H]3CC[C@@]4(C)[C@@H](CC[C@]5(C)[C@@H]4CC=C4[C@@H]6CC(C)(C)CC[C@]6(C(=O)O[C@@H]6O[C@H](CO[C@@H]7O[C@H](CO)[C@@H](O)[C@H](O)[C@H]7O)[C@@H](O)[C@H](O)[C@H]6O)CC[C@]45C)[C@]3(C)CO)OC[C@H](O)[C@@H]2O)[C@H](O)[C@H](O)[C@H]1O | 14%
CC(C)=CCC/C(C)=C/CC/C(C)=C/CC/C(C)=C/CC/C(C)=C/CC/C(C)=C/CC/C(C)=C/CC/C(C)=C/CC/C(C)=C/CO | 5%
CC(=O)NC(Cc1c[nH]c2ccccc12)C(=O)O (racemic) | -21%

Set 3 — method: competition with immobilised ligand; tested at: 1 µM
Compound: CC1=C(C#N)C(c2ccc3c(c2)c(NC(=O)c2ccccc2C)nn3C)C(C#N)=C(C)N1
target | test | remaining binding [%]
KIT (Homo sapiens, UniProt P10721, T670I/V559D) | cell-free assay | 100
YES1 (Homo sapiens, UniProt P07947) | cell-free assay | 88
CILK1 (Homo sapiens, UniProt Q9UPZ9) | binding | 97
DYRK1A (Homo sapiens, UniProt Q13627) | cell-free assay | 97
PIK3CD (Homo sapiens, UniProt O00329) | cell-free assay | 71
Tyrosine-protein kinase ABL1, non-phosphorylated (ABL1, Homo sapiens, UniProt P00519) | cell-free assay | 86
PAK2 (Homo sapiens, UniProt Q13177) | cell-free assay | 100
CAMK2A (Homo sapiens, UniProt Q9UQM7) | cell-free assay | 90

Set 4 — observed: enzyme activity; action: inhibitor; tested at: 0.5 µM; baseline: control
Target: Ribosomal protein S6 kinase alpha-5 (RPS6KA5, Homo sapiens, UniProt O75582)
Chain of UniProt O75582 (whole entry, looked up): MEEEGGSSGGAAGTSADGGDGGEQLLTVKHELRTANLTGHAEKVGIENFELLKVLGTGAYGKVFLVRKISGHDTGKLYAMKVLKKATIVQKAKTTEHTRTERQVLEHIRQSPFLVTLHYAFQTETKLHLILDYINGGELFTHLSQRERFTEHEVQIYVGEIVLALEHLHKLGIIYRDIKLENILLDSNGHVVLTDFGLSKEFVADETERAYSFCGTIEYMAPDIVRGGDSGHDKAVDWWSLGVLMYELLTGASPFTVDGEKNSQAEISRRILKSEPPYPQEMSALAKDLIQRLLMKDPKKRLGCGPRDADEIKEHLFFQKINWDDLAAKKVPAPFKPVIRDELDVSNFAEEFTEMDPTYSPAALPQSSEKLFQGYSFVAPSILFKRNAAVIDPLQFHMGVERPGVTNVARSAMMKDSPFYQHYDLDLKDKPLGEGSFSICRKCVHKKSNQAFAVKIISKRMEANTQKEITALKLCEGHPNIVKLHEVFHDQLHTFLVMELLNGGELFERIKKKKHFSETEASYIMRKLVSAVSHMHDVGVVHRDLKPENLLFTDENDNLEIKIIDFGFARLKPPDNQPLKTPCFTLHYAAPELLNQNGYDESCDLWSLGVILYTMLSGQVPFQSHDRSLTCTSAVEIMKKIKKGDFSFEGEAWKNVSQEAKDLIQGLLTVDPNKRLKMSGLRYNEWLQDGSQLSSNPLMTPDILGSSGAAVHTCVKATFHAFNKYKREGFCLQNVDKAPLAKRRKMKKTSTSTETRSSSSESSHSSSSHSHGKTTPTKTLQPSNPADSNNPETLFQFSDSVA
SMILES | remaining activity [%]
O=C1NC(=O)C(c2cn(CCCO)c3ncccc23)=C1c1cnccn1 | 73.9
Nc1ccc2ncnc(NCCc3ccc(Oc4ccccc4)cc3)c2c1 | 98.3
O=S(=O)(c1cccc2cnccc12)N1CCCNCC1 | 62.1
Nc1ncnc2n[nH]c(Nc3ccc(F)cc3)c12 | 96.7
O=C(CCCc1ccc(-c2ccccc2F)cc1)Nc1ccc(O)cc1 | 95.2
O=C(O)c1ccc2c3c1cccc3c(=O)n1c3ccccc3nc21 | 104
Cc1ccc(NC(=O)c2ccc(CN3CCN(C)CC3)cc2)cc1Nc1nc(-c2cccnc2)cs1 | 103
O=c1c2ccccc2[nH]c(=S)n1CCN1CCC(=C(c2ccc(F)cc2)c2ccc(F)cc2)CC1 | 105
COc1cc2ncnc(Nc3ccc(Oc4ccccc4)cc3)c2cc1OC | 106
N#CC(C#N)=C(N)/C(C#N)=C/c1ccc(O)cc1 | 96.7
CN(C)c1ccc(C=C2C(=O)Nc3ccccc32)cc1 | 98.7
Cc1cccc(-c2[nH]c(C(C)(C)C)nc2-c2ccc3c(c2)OCO3)n1 | 97.5
Cn1c2ccccc2c2c3c(c4c5ccccc5n(CCC#N)c4c21)CNC3=O | 23.7
CNC(=O)c1cc(Oc2ccc(NC(=O)Nc3ccc(Cl)c(C(F)(F)F)c3)cc2)ccn1 | 102
CCOC(=O)c1c(C)[nH]c(/C=C2\C(=O)Nc3ccccc32)c1C | 91.8
Cc1nc(-c2ccccc2)c(-c2ccncc2)o1 | 107

For quick reference, copied from above (set 3):
target | test | remaining binding [%]
DYRK1A (Homo sapiens, UniProt Q13627) | cell-free assay | 97
PIK3CD (Homo sapiens, UniProt O00329) | cell-free assay | 71
